Measured values from different studies.
Every numbered part comes from another study and shows a few of its results, in no order.

Block 1 — method: EMSA with sequencing; form: double-stranded DNA, one strand shown; matrix: in vitro; tested at: 10 and 20 nM; reference: negative control set to 0; direction: higher = stronger binding
Target: Hepatocyte nuclear factor 3-alpha (Foxa1, Mus musculus, UniProt P35582, residues 1-468, full length assumed)
Sequence of UniProt P35582 (whole entry, looked up): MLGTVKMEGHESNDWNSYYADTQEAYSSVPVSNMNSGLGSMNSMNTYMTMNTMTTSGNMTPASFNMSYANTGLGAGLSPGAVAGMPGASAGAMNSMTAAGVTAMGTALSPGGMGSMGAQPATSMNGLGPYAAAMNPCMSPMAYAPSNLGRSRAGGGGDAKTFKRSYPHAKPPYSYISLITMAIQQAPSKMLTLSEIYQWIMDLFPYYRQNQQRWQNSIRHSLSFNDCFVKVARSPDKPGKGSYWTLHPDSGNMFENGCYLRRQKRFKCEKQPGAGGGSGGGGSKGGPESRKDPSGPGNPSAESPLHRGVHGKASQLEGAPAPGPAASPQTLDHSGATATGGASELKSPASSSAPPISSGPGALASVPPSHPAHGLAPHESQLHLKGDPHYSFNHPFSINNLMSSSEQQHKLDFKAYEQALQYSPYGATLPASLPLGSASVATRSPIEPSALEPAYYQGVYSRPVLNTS
Setting: whole designed probe, mean of two concentrations, ends assumed
Sequence	normalised bound fraction [ratio]
GTGAGCGGTGCCCATTGATGGGGAACATCCACGAACCTGGCCCTGTCTGGTAACCACAGTGAACCATCGCAAGATACAGCACTATAATGACTCACTGTGCCCAGTTGGGCTGGAAATGTGTCAACACTGGCACATCCTCAGGGACACGGAAGTGTACTTGTTTTTGGAGAGGGACTAGACCTTCATCCTTGAGGTGAAGAAGATTTTCTCTCCAGGGTGTTTCACTGGGATCGTGGGGAC	0.0482
GTGAGCGGTGCCCATTGATGGGGAACGGCTCCAAACGGCTGAATCAGCATTTTCAGAAACAAAGTGTTCTAGGCCTGGCCTTTTAAACAGCAGCAACGAGCAAGTTGTGCAATAACGCATATTTACTCACGAGCTCTCCTTGTTTTGGTCTTTCCCCCCTCCCCCCCATCTCTTGAATGAAACTGGGCACCAAGTTTGCAAGAAAATATTCTTTCAAACTTTCACTGGGATCGTGGGGAC	0.0937
GTGAGCGGTGCCCATTGATGGGGAACCAGTACTTAATAAGTACAAAAAAGTCTATAGCGACACTATTTATAATTTTAAAAATGATTGAAGTCAATTAACATTTAAGTGTTAAAAAGAAAGTAATCTACCCAAATATACACAAACAGTAGACTGCTCTGGCTTGCATACAGAGAGGTCCATTGCCCTTTTGGGTGGGCCTAAGAAGCACTTCTGGGGAGATTTCACTGGGATCGTGGGGAC	0.0875
GTGAGCGGTGCCCATTGATGGGGAACGGCTCCAAACGGCTGAATCAGCATTTTCAGAAACAAAGTGTTCTAGGCCTGGCCTTTTAAACAGCAGCAACGAGCAAAAGTTGTGCAATCGCATATTTACTCACGAGCTCTCCTTGTTTTGGTCTTTCCCCCCTCCCCCCCATCTCTTGAATGAAACTGGGCACCAAGTTTGCAAGAAAATATTCTTTCAAACTTTCACTGGGATCGTGGGGAC	0.12

Block 2 — method: aptamer microarray, sandwich; form: DNA with 2'F-ANA; matrix: in vitro; tested at: 200 nM; with: Cy3 exosite-II aptamer, 400 nM; direction: higher = stronger binding; sequence: GGTTGGTGTGGTTGG
Target: Prothrombin, mature alpha-thrombin (F2, Homo sapiens, UniProt P00734)
Setting: whole 15-mer aptamer, many near background
Modification	mean fluorescence intensity [a.u.]
2'F-ANA at 1 2 3 4 6 7 8 11 15	153
2'F-ANA at 1 2 7 8 10 12 13	67
2'F-ANA at 1 2 4 7 9 10 11 15	47.7
2'F-ANA at 1 2 5 6 11 13 15	51.3
2'F-ANA at 2 6 8 11 13 14	121
2'F-ANA at 1 2 4 5 6 7 13 14	46.1
2'F-ANA at 8 9 10 13 15	147
2'F-ANA at 5 6 7 10	46.5
2'F-ANA at 1 4 8 9 10 11 12 14	47.1
2'F-ANA at 1 3 5 6 7 8 10 12 14 15	56.9
2'F-ANA at 2 3 6 9 10 11 12 13 14	244
2'F-ANA at 4 8 10 11 15	74.8

Block 3 — method: competition protein-binding microarray; form: double-stranded DNA, one strand shown; matrix: in vitro; tested at: 2 µM; with: Pho4 competitor, 0.05 µM; direction: higher = stronger binding
Target: Centromere-binding protein 1, full length, His-tagged (CBF1, Saccharomyces cerevisiae, UniProt P17106, residues 1-351)
Sequence of UniProt P17106 (whole entry, looked up): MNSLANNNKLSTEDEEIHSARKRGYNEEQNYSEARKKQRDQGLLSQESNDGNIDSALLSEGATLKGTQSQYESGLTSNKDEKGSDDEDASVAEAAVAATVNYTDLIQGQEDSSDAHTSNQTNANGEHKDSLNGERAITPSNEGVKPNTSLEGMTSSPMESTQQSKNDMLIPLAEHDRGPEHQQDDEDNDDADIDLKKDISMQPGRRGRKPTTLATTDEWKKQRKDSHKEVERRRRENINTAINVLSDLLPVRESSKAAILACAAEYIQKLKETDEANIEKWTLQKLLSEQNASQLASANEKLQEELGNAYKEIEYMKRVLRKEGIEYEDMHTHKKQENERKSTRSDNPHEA
Setting: whole 60-bp probe, lowest competitor level
Sequence	fluorescence intensity
GAAACAGCCGCTTGCCACGTTGCTCGATAAGTTCTTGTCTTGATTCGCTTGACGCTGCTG	70.2 a.u.
CGTTCAAAGCCTTTTCACGTTGAGCATCAGCCTTAGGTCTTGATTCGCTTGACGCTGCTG	80.4 a.u.
TCAAACAAGATAGCGTTCGTGACAAAAGGGAGATGGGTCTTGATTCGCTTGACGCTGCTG	67.9 a.u.
GACAGAAAAATTTGTCACGTGACGGGAAAAGTTACGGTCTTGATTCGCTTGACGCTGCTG	24200 a.u.
GGAGTTCGGGAGTTGCACGTGGCACCTGGTGACAGCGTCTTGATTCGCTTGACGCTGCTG	786 a.u.
CTTGCAGGTTAGGTTTTCGTGCTAAGATGAGCAGATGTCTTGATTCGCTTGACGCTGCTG	63.9 a.u.
AAATTACTAAGTTGCCCGGTGGGTGACGCCGTATGAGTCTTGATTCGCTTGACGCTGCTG	53.3 a.u.
CTTCTGTAAATTTGTCGGGTGGGTGGACGCGCCCCGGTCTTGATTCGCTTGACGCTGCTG	69.3 a.u.

Block 4 — method: RNA Bind-n-Seq; form: RNA; matrix: in vitro; tested at: 1 µM; setting: whole 134-nt RNA, ends assumed; with: 150 mM KCl; reference: input library; direction: higher = stronger binding
Target: Ras GTPase-activating protein-binding protein 1, RRM domain (G3BP1, Homo sapiens, UniProt Q13283)
Sequence of UniProt Q13283 (whole entry, looked up): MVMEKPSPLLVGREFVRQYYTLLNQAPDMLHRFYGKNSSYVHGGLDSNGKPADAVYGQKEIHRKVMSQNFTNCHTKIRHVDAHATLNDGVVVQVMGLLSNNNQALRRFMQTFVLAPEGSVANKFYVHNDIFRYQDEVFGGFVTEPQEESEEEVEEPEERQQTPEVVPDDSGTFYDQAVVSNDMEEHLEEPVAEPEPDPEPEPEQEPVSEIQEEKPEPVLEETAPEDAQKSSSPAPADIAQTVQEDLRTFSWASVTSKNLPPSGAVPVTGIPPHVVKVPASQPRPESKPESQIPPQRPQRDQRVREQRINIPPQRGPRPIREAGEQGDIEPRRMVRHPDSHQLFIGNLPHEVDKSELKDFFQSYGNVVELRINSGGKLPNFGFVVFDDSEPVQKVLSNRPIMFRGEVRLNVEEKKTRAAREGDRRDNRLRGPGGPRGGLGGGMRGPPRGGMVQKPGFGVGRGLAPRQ
Sequence	log2 enrichment
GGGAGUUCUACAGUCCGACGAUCAUCAUGCAGGUGGGCAUCUUUGGGAAGUGGGGCAAGGGGGGGAUAGGGAGGGGGGUAACACUUUGGGAACAGGUGGUCCCAGGUCGUUUCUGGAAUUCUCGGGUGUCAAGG	-0.563
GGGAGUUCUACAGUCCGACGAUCUCAAGUCCUGUGCUACACAUCGUAUGUACCGAAUCGGGGUUGGGGUUGGGUUGGGAAAGUAUUAUGUUACGCCGUUCGGAUCUGCACUUCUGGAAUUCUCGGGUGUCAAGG	0.643
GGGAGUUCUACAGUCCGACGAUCUGUGCUACACAUCGUAUGUACCGAAUCGGGGAAAAAAAGGGGAAAAAAAGGGGAAAAAGGGGAAAGUAUUAUGUUACGCCGUUCGGAUCUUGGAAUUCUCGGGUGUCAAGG	0.784
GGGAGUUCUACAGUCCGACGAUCCACAGACAACACGCACCCACACAGACACAGAGGGAAGGGGUUGGGAUGGGGACAGGGUGCACAUCAGGGCGGGGUAGGACCCCAGCCCCUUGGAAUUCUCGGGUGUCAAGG	0.148
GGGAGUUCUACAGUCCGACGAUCUAACUUUAGAGGAGGAUCUGAAGGAUAUGGCAGUGGACGUGGAUUUGGGGAUGGCUAUAAUGGGUAUGGAGGAGGACCUGGAGGUGGCAAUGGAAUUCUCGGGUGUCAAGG	-0.743

A few entries again (block 4):
Sequence	log2 enrichment
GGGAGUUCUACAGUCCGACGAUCUCAAGUCCUGUGCUACACAUCGUAUGUACCGAAUCGGGGUUGGGGUUGGGUUGGGAAAGUAUUAUGUUACGCCGUUCGGAUCUGCACUUCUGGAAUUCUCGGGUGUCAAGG	0.643
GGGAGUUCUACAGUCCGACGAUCCACAGACAACACGCACCCACACAGACACAGAGGGAAGGGGUUGGGAUGGGGACAGGGUGCACAUCAGGGCGGGGUAGGACCCCAGCCCCUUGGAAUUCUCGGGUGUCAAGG	0.148
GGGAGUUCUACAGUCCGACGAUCUAACUUUAGAGGAGGAUCUGAAGGAUAUGGCAGUGGACGUGGAUUUGGGGAUGGCUAUAAUGGGUAUGGAGGAGGACCUGGAGGUGGCAAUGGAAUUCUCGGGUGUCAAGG	-0.743
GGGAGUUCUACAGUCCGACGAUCUGUGCUACACAUCGUAUGUACCGAAUCGGGGAAAAAAAGGGGAAAAAAAGGGGAAAAAGGGGAAAGUAUUAUGUUACGCCGUUCGGAUCUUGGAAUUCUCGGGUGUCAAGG	0.784
